Experimental data from different studies.
Each numbered part is a random draw from the data of one study; scales do not carry over between parts.

Sample 1
Target: RNA binding protein fox-1 homolog 2, RRM domain, GST-SBP tag (RBFOX2, Homo sapiens, UniProt O43251-10, residues 100-194)
Technique: RNA Bind-n-Seq
Molecule type: RNA
Matrix: in vitro
Tested at: 365 nM
Setting: natural RNA segment, single round, ends assumed
Reference: no-protein control
Reading: higher = stronger binding
Measurement: RBNS enrichment (R)
Shared flanks, not repeated: GGGAGUUCUACAGUCCGACGAUC … UGGAAUUCUCGGGUGCCAA
Construct (chain): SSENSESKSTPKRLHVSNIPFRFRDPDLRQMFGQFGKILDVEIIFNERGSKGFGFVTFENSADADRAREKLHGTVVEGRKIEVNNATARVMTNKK
GAAGAUUACCAAUGAUUUUGAGGCUUUUCUAUAAUAAAAAGAGGUUCUAACCAUUAUUUGGGAACAAAGAGAGUUUUCAUCUUUUUUCAGAUCAAAACCAUUCUGUAAAA: 0.312
UCUUAUGGGCAAGCCACCAUCCCACUCUCGUCUCCCUGAGCUGUCUGGUUCUGCGGACCCAGGAAGGGCCAGGCUGGGGCCCUGCUUGUGUUUAUCCUCGGCUGCUGUCU: 0.586
AAUUCAAAUUAACUUCCUUUGAGUCUUUGUUAAAAGAGAAAAUAAAAAAAUCUCAAGCAAACUUGGAGUGGCAGUCCAGGGCAUGUCGCAGGAGCAGGAGUGGCUCCAAG: 1.48
AAGAUUUCUGUAUAAGACUGUUGAGCAGUUUUUAAAAUAGUGUAGGAUAAUAUAAAAAGCGGAUAGAUGGCGCUAUGUUUGAUUCCUACAACGAACCGAUCACCAGCUCC: 0.544
CCUGAGCAUUCGCAAAGCUCGCUUCUCCAGGGAGCCUCCUCUUGGCUUUGGAAAAGAGCCCAGGGACUUAACGUGCUGCCUGUUGUACUCUGUCCCCUCAUGACUUUUUA: 0.632
AGGGGGCAUUUUGAUGUGGUCCUCCUUGCUUCUGGAGGGACUUGGUUCCCUUUAGAAAACCUGCCCUGGGAAAAGACUUCUUGGUUUUGAGGAAGAUCCUUGGUUAGCGA: 0.788
UGAAUCUAACAGACAUUUGAUUUAAUGUACACUCCCUUUUGCUUAUAGUGUGCAUUUUUUUUGGAGGUCAUUCAAAUUUUCCCUCUUCUGUGAUAGCUGUAGUUUCUUUC: 1.08
CUGUUGUCUGGUUUUGAAAAACAAUUAUCUUGUUUUGCAAAUUGUGGAAUGAUGUAAGCAAAUGCUUUUGGUUACUGGUACAUGUGUUUUUUCCUAGCUGACCUUUUAUA: 0.55
GCACCAGCUACCUCUGCAGACUCCCAGUGACUCUCUCUUCACAAGCAGAUGAAGGGAAGGCUCAGAAGGGCAUCUCCUGUAGCUCCUGGCAGCUGGUUCUGGUGGCACUG: 1.02
GUAAUUCUGUCCUGCGGGGUUCAGCAUCAUGCACGUUCCCCCUGGGCCAUUCUCUGAUGCAGGGCACUUGCUCCACACUCUGGGAACCCAGAUUCACCAGUCUGCCCUGU: 0.209
AAGAACUCUUAACUGGAAGACGUUGUACUGUUGUGUAGAGCCUGAACCCAAACCCUGCGGUACCCACCCCGGUAGUGGCCAGUCAUCUUGUGCUGACAUUAGCAUUCACC: 0.403
CCCAGCUGCGUUUUUUUAUAGUAGAUUUUUAACAAAAAACGGGGAGAAAUAAUGCAUUUCUGUGGAUACAGUGCCCACCGCCCUCCUCCACUUGGAAACGGUAUCCUCCC: 0.602

Sample 2
Target: RING finger protein unkempt homolog, zinc fingers 1-6, GST-SBP tag (UNK, Homo sapiens, UniProt Q9C0B0, residues 30-357)
Technique: RNA Bind-n-Seq
Molecule type: RNA
Matrix: in vitro
Tested at: not given
Setting: RNA with constant flanks, human-mouse chimeric sites, ends assumed
Reference: input RNA pool
Reading: higher = stronger binding
Measurement: bound/input enrichment
Shared flanks, not repeated: GGGAGUUCUACAGUCCGACGAUC … CAACAGAGGAUUGAGCAUCA
Target sequence (chain): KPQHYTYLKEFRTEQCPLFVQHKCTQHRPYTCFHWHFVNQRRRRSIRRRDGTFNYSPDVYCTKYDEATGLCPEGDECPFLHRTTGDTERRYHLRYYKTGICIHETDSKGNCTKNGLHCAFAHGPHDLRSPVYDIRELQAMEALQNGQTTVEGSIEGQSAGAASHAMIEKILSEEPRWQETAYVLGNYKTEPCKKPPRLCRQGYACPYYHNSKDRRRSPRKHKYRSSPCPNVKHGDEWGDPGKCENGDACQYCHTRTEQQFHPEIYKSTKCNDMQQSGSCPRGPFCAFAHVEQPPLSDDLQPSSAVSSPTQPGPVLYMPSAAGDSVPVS
AAAGAGUGGAUAGAAUGUGCACACGGGAUCGGUGGGACCCGGGCGAAAAAGGAGUGCAAGAUAGAGUAUGAUGAUUUCGAAGAGUGCUUGCUUCGGUACAAAACGAUGAGGCGAAUGCAU: 0.712 ratio
CUUAAUGUUAAUAUUUUUAAAGGAAGCAAGCUAAAAUGUCUGCUUUUGGUACUACAUGCAUUAAUAAAAGGUUAAGUUUUGUUUUCCACUGAAGUACUAUUUAACAUCUCAGAAAAAAAC: 0.171 ratio
UAAAUUAGGGCUGCCGUUUUCUGUUUCUCCCUGGGCUGCGGAAAGCCAGAAGAUUUUAUCUAGCUUAUACAAGGCUGCUGGUGUUCCCUCCCUCCCGCCCUCUCUCUGUUUUUGGCUGCA: 1.04 ratio
GUGCCCUUCUCGCUGCUGCGGAGCCCGAGCUGGGAACCAUUCCGGGACUGGUACCCUGCACACAGCCGCCUCUUCGAUCAAGCUUUCGGGGUGCCCCGGCUGCCGGAGGAGUGGUCGCAG: 0.0522 ratio
ACCAUUUUCGCGGUUCAGGCUUUGUGUGUAGUUCACUUACGGUAUUAAAUUAUUAUUCUGCUUAGCUUAUAAUAAGGAUAAUUGCAUGAUUUAAGUAUACUGAAUGUUGUUAUUGUUCUU: 1.68 ratio
UCUGGUCAUACUCGUGCGUAUGGUGUUUGCUUUGUGGACACUUCACUGGGAAAGUUUUUCAUCGGCCAGUUUUCGGAUGACCGCCACUGUUCCAGAUUUAGGACGCUAGUGGCUCACUAU: 0.248 ratio
UUCAAAGAAAAGGGCAGUUCAUAAAUAUCAUAAGUAAAACUGCAUCCGGGAAAUUCUGUUCUUUUGUUUAAUUUUCCCCCAAAUGAAGCCAAAGUGUGUGUUGAAGAACUGAGAAAAAAU: 0.364 ratio
GAAUCCUACUCAGGCGGAUUUUGCAACACCAAGCUCACAGCAGCAGCAUCUUAGUCACAGUAGGGUAGCUUUAGGGCUCUGUGGCCAUGGUUUUACUCACAUGCAGGUUUGGAAAAUGUA: 0.412 ratio
CACGUGUCUGCAGUACUUGAUGUGGACUACUCUCCCACUGGGAAGGAAUUUGUGUCUGCUAGUUUCGAUAAGUCUAUUAGAAUCUUUCCUGUGGACAAGAGCCGAAGCAGGGAGGUAUAU: 1.46 ratio
CUGGCACUCUAUCAGAUAUAUUAAUUUUUUAAUGUAGAUGUAAUUUUAAAAAUGAAUGGCUACUUUACGUGAUAGAUUAGGGUUUUACUAUAUAUGUGUGUGUAUAUAUAUAUAUAUAUA: 11.6 ratio
UUGCCUGAGAACGAGGAUGAGCUGGAGAGCACCAAUAGGCGCUACACCAAGAGGGACUGCAGCACUUUCCUCAGAACUAGUGAGACGGGCAUCGUGGACCAGGUCAUGGUCACUCUCAAC: 0.121 ratio

Sample 3
Target: Prothrombin, mature alpha-thrombin (F2, Homo sapiens, UniProt P00734)
Technique: aptamer microarray, sandwich
Molecule type: DNA with 2'F-ANA
Matrix: in vitro
Tested at: 200 nM
Setting: whole 15-mer aptamer, many near background
Together with: Cy3 exosite-II aptamer, 400 nM
Reading: higher = stronger binding
Measurement: mean fluorescence intensity
Strand: GGTTGGTGTGGTTGG
2'F-ANA at 3 6 7 8 11 12 13 14: 549 a.u.
2'F-ANA at 1 3 5 8 9 12 13 14 15: 48.9 a.u.
2'F-ANA at 1 3 5 7 8 12 13: 100 a.u.
2'F-ANA at 1 3 4 6 7 8 9: 218 a.u.
2'F-ANA at 1 3 5 7 9 10 12 13 14 15: 55.1 a.u.
2'F-ANA at 2 3 6 7 8 10 11 14 15: 234 a.u.
2'F-ANA at 1 3 10 12: 116 a.u.
2'F-ANA at 1 2 4 7 8 9 10 11 12 15: 73 a.u.
2'F-ANA at 1 2 3 6 9 11 13: 147 a.u.
2'F-ANA at 2 3 4 5 7 8 10 12 15: 55.8 a.u.
2'F-ANA at 1 2 4 5 6 7 11 13 14: 47.9 a.u.
2'F-ANA at 1 2 4 5 7 8 10 11 12 13: 51.7 a.u.
2'F-ANA at 7 8 9 13 15: 507 a.u.
2'F-ANA at 2 4 7 8 9 10 11 12 15: 115 a.u.
2'F-ANA at 1 2 3 5 8 11 12 15: 105 a.u.
2'F-ANA at 2 5 8 9 10 12 13 15: 47.9 a.u.
2'F-ANA at 2 3 8 11 13 14 15: 356 a.u.
2'F-ANA at 1 3 5 7 8 10 12 13 14: 46.1 a.u.
2'F-ANA at 1 3 4 5 7 8 9 14: 48.9 a.u.

Sample 4
Target: Histone acetyltransferase KAT6A, winged helix 2, GST fusion (KAT6A, Homo sapiens, UniProt Q92794, residues 85-181)
Technique: protein binding microarray
Molecule type: double-stranded DNA, one strand shown
Matrix: in vitro
Tested at: not given
Setting: 8-mer, flanks averaged, mean of 2 arrays, mostly near background
Reference: not given
Reading: higher = stronger binding
Measurement: E-score
Construct (chain): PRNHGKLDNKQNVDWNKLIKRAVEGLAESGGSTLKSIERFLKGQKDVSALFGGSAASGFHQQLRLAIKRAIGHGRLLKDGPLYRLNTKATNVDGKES
GACTAACC: -0.0271
ATTCGCTG: 0.00877
GGGCTTAC: 0.0202
GCCTGAGC: 0.167
CAGCATTA: -0.0444
TATCCGAA: -0.0219
TAGGATCA: -0.0845
CCCGCGCC: 0.239
CTCCTCCA: 0.144
GCTACAGC: 0.0583
CGATCCCA: 0.0023
AGACTGGC: -0.151
AGGGCAAC: 0.0319
ACTCCATA: -0.156
ATCCCCAT: -0.126
CGTTCCGA: 0.0883
AGTACACC: 0.00968
CCCCGCTC: 0.0231
CTCGCGTC: 0.143
CGATCGAA: 0.0518

Sample 5
Target: Centromere-binding protein 1, full length, N-terminal tag (CBF1, Saccharomyces cerevisiae, UniProt P17106, residues 1-351)
UniProt P17106, sequence (whole entry, looked up): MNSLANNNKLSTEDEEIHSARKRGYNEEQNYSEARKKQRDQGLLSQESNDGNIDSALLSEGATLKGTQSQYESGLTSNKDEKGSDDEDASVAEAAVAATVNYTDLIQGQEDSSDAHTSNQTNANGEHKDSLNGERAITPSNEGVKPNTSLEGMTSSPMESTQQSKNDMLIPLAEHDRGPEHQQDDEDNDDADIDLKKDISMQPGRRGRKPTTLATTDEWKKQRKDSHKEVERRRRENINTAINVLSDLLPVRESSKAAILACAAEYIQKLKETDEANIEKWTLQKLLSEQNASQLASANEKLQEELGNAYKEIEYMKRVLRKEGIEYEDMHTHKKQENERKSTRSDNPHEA
Technique: protein-binding microarray
Molecule type: double-stranded DNA, one strand shown
Matrix: in vitro
Tested at: 0.8 µM
Setting: whole 60-bp probe, no competitor
Reading: higher = stronger binding
Measurement: fluorescence intensity
Shared flanks, not repeated: … GTCTTGATTCGCTTGACGCTGCTG
CTACAATCAAAACCATGTGAGATACCCACTTCGTTC: 645 a.u.
GAAGACACCGATAAACAGGTGAAATATTGAAAATAG: 553 a.u.
CCTAACTACTATAATCACGAACCATAGCTTCGTACA: 589 a.u.
GAATTATGAGACAGCCACGCAACACAAAAAAGGTAG: 527 a.u.
CTAGAACACTACGCCAACGTGATTGGCAATTGTTTC: 1380 a.u.
CTACAAACTCCCCACCTGACAATGTCTTCAACCTTC: 737 a.u.
CTACATTCGAACTAAAACATCAGCCCCAAAAATTTC: 510 a.u.
GAACATTATAAGATGCACGTTTCAACATACTGTTAG: 675 a.u.
CTAGTAATGCATAACAACGTGCAATGCAAAGGATTC: 715 a.u.
GAAAAGTTAGCTCATTCTGACGTCAACATCGAATAG: 516 a.u.
CTAAATTAATACATAAACGTGTACAAGTTATATTTC: 589 a.u.
GAATATTGTTTGGTGAACGTGGCACTGGTGGTATAG: 574 a.u.
CTAATTTTTTCTTATTGCGTGACCGCAATGAAATTC: 1200 a.u.
CTAAAGGAAGAGGACCACACCATGCATTTGTGTTTC: 492 a.u.
CCTAACTACTATAGTCATCACAAATAGCTTCGTACA: 523 a.u.
CTAGTAGTGACTCATCTGACTATATTGCCGGTTTTC: 556 a.u.
GAATTTTTCTTTTACTACGTGTGATCCTCTAAATAG: 707 a.u.

A few entries again (sample 1):
AGGGGGCAUUUUGAUGUGGUCCUCCUUGCUUCUGGAGGGACUUGGUUCCCUUUAGAAAACCUGCCCUGGGAAAAGACUUCUUGGUUUUGAGGAAGAUCCUUGGUUAGCGA: 0.788
AAGAUUUCUGUAUAAGACUGUUGAGCAGUUUUUAAAAUAGUGUAGGAUAAUAUAAAAAGCGGAUAGAUGGCGCUAUGUUUGAUUCCUACAACGAACCGAUCACCAGCUCC: 0.544
AAUUCAAAUUAACUUCCUUUGAGUCUUUGUUAAAAGAGAAAAUAAAAAAAUCUCAAGCAAACUUGGAGUGGCAGUCCAGGGCAUGUCGCAGGAGCAGGAGUGGCUCCAAG: 1.48
GCACCAGCUACCUCUGCAGACUCCCAGUGACUCUCUCUUCACAAGCAGAUGAAGGGAAGGCUCAGAAGGGCAUCUCCUGUAGCUCCUGGCAGCUGGUUCUGGUGGCACUG: 1.02
GAAGAUUACCAAUGAUUUUGAGGCUUUUCUAUAAUAAAAAGAGGUUCUAACCAUUAUUUGGGAACAAAGAGAGUUUUCAUCUUUUUUCAGAUCAAAACCAUUCUGUAAAA: 0.312
GUAAUUCUGUCCUGCGGGGUUCAGCAUCAUGCACGUUCCCCCUGGGCCAUUCUCUGAUGCAGGGCACUUGCUCCACACUCUGGGAACCCAGAUUCACCAGUCUGCCCUGU: 0.209
